Measurements pooled from the literature.
Numbered parts are unrelated; each lists some results of a single study.

Block 1
Target: Fragile X messenger ribonucleoprotein 1, C-terminal low-complexity region (Fmr1, Mus musculus, UniProt P35922)
Technique: RNA Bind-n-Seq
Form: RNA
Medium: in vitro
Tested at: 200 nM
Notes: whole 134-nt RNA, ends assumed
Added: 150 mM LiCl
Baseline: input library
Direction: higher = stronger binding
Measurement: log2 enrichment
Each molecule: 7-deaza-guanosine replaces G
Constant ends, left off below: GGGAGUUCUACAGUCCGACGAUC … UGGAAUUCUCGGGUGUCAAGG
CCUGUGCUACACAUCGUAUGUACCGAAUCGGAAAAAAAGGAAAAAAAGGGAAAAAAAGGGAAAGUAUUAUGUUACGCCGUUCGGAUCUGC: -1.1
UUUUGAGGAAAGGAUGAAGGAGCUCAGAGAAGAGGUAAGGGUCUCCUAUCCUUCCCCUCUCCCCCAGAUUUGAGUUUUAUGUUAUGAAUC: -0.394
CCUGUGCUACACAUCGUAUGUACCGAAUCGGGGCCCCCGGGGCCCCCGGGGCCCCCGGGGAAAGUAUUAUGUUACGCCGUUCGGAUCUGC: -0.0435
GUCCUGUGCUACACAUCGUAUGUACCGAAUCGGUUUUUGGUUUUUGGGGUUUUUGGGGAAAGUAUUAUGUUACGCCGUUCGGAUCUGCAC: -0.611
UGGGAGGUGGAUUUUGUUUAUUUUUUUAGCUCAUUUCCAGGGGUGGGAAUUUUUUUUUAAUAUUUGUCAUGAAUAAAGUUGUUUUUGAAA: 0.0292
ACCAUGCAGGUGGGCAUCUUUGGGAAGUGGGGCAAGGGGGGGAUAGGGAGUGGGGUAACACUUUGGGAACAGGUGGUCCCAGGUCGUUUC: 1.06
CUCAAGUCCUGUGCUACACAUCGUAUGUACCGAAUCGGUUGGGUUGGGUUGGGAAAGUAUUAUGUUACGCCGUUCGGAUCUGCACUUCCA: 0.132
CCUGUGCUACACAUCGUAUGUACCGAAUCGGGGCCCCCCGGGCCCCCCGGGGCCCCCCGGAAAGUAUUAUGUUACGCCGUUCGGAUCUGC: -2.57

Block 2
Target: RING finger protein unkempt homolog, zinc fingers 1-6, GST-SBP tag (UNK, Homo sapiens, UniProt Q9C0B0, residues 30-357)
Technique: RNA Bind-n-Seq
Form: RNA
Medium: in vitro
Tested at: not given
Notes: RNA with constant flanks, human and mouse sites, ends assumed
Baseline: input RNA pool
Direction: higher = stronger binding
Measurement: bound/input enrichment
Constant ends, left off below: GGGAGUUCUACAGUCCGACGAUC … CAACAGAGGAUUGAGCAUCA
Residues (chain): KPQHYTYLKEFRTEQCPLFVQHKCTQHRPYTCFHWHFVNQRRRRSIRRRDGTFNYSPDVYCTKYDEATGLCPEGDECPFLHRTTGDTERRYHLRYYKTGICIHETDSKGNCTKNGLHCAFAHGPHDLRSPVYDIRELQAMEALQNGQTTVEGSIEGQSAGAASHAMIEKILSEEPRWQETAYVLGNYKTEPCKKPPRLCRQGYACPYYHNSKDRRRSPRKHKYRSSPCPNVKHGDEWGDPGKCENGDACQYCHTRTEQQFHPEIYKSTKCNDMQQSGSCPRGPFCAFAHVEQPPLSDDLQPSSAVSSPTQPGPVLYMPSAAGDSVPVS
AAUAUCAUUCCUAGUACCUUUUUGCCUAAACAAGAAGGACCUUUUUUCUUGGACUUUAAUAGUAUUAUCCCCAUCAAGAUCACACAACUUCAGUGAUGGAGAAAUCUCAAGUUACUGGCU: 0.558 ratio
GCAGAUUAUAAUGGCAGACUGGCGGCAGAAAUAGAUGAUAGAAAGCAACUCACCCGAAUGUUAGCAGAUUUUCUUCGUUGUCAAAAGGAAGCCCUUGCAGAGAAAGAACAUAAAUUGGAA: 1.23 ratio
UUGAACUUGCAGAAGACUUUUAAGCCAGCUAUACAAGAACUGAAGCCACCAACCUAUAAGCUAAUGACUCAGGCACAGUUGGAAGAGGCUACAAGACAGGCAGUUGAGGCAGCUAAAGUA: 0.266 ratio
UGUCCGGGGAUAGGCAGGUGACCCGUGCCGCAGGCAGGAGGCCCCAGCGAGCAUCCCAUCCUGUCAUACUGCUGCAUCCGGCUAGCGCGCUCCGAAAGCAACAUCCGUGCUCAGAGAUGG: 0.0622 ratio
ACAAGGCAAAGCCUGCUCUCUCUGUCUCUCUGUCUCCUCUUCUCCUUUUUUGCCUUAUUCUAUCCGAUUUUUUCCCUAAGCUUCUACCUGGGAUUUUCCUUUGGAAAAGUCUCUGAGGUU: 0.219 ratio
AUUCAGAAUCACUUUGUGGAUGAGUAUGACCCUACGAUAGAGGACUCCUACAGGAAACAAGUAGUAAUUGAUGGAGAAACCUGUCUCUUGGAUAUUCUCGACACAGCAGGUCAAGAGGAG: 0.563 ratio
AUUCCUGAAGACAAGAAAGUCAGGGUUCAGAGGACGCAGAGCACUUUUGACCCAUUUGAGAAACCAGCCAACCAAGUCAAAAGGGUCCAUUCUGAGAACAAUGCAUGCAUUAACUUUAAA: 0.107 ratio
CUUCAGAAGAGUAAUGGUGUACUUCCUGAAUUAUUUCAGUGUCAUGGUACUGCAGAUGAGUUAGUUCUUCAUUCUUGGGCAGAAGAGACAAACUCAAUGUUAAAAUCUCUAGGAGUGACC: 0.172 ratio

Block 3
Target: Interferon regulatory factor 5, full length, phosphomimetic (IRF5, Homo sapiens, UniProt Q13568-2, residues 1-514, K96S/S451D/S453D/S456D/S462D)
Technique: protein-binding microarray
Form: double-stranded DNA, one strand shown
Medium: in vitro
Tested at: 250 nM
Notes: 60-bp whole probe
Added: salmon DNA 0.4 mg/ml
Baseline: random background probes
Direction: higher = stronger binding
Measurement: log fluorescence
Constant ends, left off below: GCCTAGCAC … GTCTTGATTCGCTTGACGCTGCTG
TCCAGGCTGGTCTCTAACTCAGTGCTA: -0.768 z-score
GACGGACTGGGTATCCGGACGTGCTAG: -0.428 z-score
GTGAGTCCCGAGAATGGTGTGGTGCTA: -0.524 z-score
AGAGGCGGGAGGGGGCGGGGGTGCTAG: 2.56 z-score
GGCGATATCGGGTATCGAGACGTGCTA: 2.69 z-score
CTGTTTTTGCTTTCCTTCATGTGCTAG: 2.14 z-score
TTAGGTATGGGACTGGGTTAGTGCTAG: -0.297 z-score
GTGTTTTCACTTTTCCTACAGTGCTAG: 5.62 z-score
TCATTTCTAAATTCCCTACTGTGCTAG: 1.19 z-score
GACGAACTGAGTTTCCAGACGTGCTAG: -0.0914 z-score
TTAGTTATCGGTTTCGGTTAGTGCTAG: 11 z-score
GACGAACTAAGTCTCGAGACGTGCTAG: -0.108 z-score
TTAGGACTTCTTTTCCTTTAGTGCTAG: 0.258 z-score
GACGGTATCCTTCTCCTGAAGTGCTAG: -0.0131 z-score
GACGGTATCCTTCTCCTGGCGTGCTAG: -0.00643 z-score
GACGGAATCGGTCTCGGGACGTGCTAG: 0.172 z-score
GGTATTCGGAACTTTTAGCTGTGCTAG: 0.225 z-score
TTGGGTATCCTTCTCCTTTAGTGCTAG: 0.0165 z-score
AATGATTACATATATGTTGGTGTGCTA: 0.403 z-score

Block 4
Target: Histone acetyltransferase KAT6A, both winged helices, GST fusion (KAT6A, Homo sapiens, UniProt Q92794, residues 1-181)
Technique: protein binding microarray
Form: double-stranded DNA, one strand shown
Medium: in vitro
Tested at: not given
Notes: 8-mer, flanks averaged, mean of 2 arrays, mostly near background
Baseline: not given
Direction: higher = stronger binding
Measurement: E-score
Target sequence (chain): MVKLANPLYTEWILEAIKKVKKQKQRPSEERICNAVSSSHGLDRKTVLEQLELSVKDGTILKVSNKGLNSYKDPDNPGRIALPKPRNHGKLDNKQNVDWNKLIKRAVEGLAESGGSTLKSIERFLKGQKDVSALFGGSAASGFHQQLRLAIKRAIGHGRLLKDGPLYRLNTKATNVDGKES
AATTCTTC: 0.0285
AGGACATG: -0.154
ATGCGGAC: 0.209
GAAAAGCC: 0.0983
AGTCTATG: -0.206
ACCCCAGC: -0.146
GAAGCCTA: 0.0415
AGGACGAT: -0.00409
GACTAGCA: -0.0879
TACATTCA: -0.072
GGAGAACA: -0.0109
TGTGCACA: -0.0471
GAGGAATA: -0.148
CGACCGTC: 0.115
TAAGGGGA: -0.252
TATACATA: -0.111
AATACTTG: -0.201
GACCTCTC: -0.051
GCACAGAC: 0.0321

Excerpt of the above (block 4):
ACCCCAGC: -0.146
TAAGGGGA: -0.252
GAAAAGCC: 0.0983
TGTGCACA: -0.0471
